Results gathered from unrelated publications.
Every numbered part comes from another study and shows a few of its results, in no order. Several values in a cell are separate wells, animals, samples, runs or records.
UniProt Q13464, sequence (whole entry, looked up): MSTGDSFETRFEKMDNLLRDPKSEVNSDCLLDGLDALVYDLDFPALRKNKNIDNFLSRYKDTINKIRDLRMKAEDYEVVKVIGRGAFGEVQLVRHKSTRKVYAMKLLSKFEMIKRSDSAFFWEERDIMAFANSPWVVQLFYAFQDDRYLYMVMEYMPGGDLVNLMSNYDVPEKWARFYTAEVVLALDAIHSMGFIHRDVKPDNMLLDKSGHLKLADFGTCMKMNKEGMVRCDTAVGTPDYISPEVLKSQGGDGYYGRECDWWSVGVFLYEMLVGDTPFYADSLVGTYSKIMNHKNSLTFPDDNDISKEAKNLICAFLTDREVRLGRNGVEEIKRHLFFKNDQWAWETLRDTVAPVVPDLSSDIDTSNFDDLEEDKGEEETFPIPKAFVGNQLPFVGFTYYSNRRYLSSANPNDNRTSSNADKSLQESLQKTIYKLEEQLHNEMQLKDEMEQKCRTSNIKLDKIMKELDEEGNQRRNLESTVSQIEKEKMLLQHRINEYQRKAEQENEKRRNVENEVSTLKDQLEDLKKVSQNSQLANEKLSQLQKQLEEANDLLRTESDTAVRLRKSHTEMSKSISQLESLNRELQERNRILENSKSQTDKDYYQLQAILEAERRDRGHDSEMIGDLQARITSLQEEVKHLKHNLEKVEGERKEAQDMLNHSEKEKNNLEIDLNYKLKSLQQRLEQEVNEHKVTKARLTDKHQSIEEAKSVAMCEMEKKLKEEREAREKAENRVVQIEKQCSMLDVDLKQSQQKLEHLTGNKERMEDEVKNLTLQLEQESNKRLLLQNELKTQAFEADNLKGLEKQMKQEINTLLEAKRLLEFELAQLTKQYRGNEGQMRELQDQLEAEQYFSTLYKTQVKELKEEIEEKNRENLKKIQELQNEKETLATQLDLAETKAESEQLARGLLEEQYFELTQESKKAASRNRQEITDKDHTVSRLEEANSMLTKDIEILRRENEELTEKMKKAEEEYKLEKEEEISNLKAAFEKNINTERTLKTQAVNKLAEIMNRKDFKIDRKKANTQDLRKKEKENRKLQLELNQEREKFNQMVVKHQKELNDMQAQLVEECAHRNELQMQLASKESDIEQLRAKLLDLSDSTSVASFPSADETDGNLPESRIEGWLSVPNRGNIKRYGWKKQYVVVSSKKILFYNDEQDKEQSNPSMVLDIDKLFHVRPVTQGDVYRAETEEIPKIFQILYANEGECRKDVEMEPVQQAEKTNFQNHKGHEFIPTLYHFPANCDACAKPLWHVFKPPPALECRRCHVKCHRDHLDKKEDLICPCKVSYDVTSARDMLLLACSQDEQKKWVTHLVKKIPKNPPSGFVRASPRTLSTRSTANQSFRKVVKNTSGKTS
UniProt Q8N568, sequence (whole entry, looked up): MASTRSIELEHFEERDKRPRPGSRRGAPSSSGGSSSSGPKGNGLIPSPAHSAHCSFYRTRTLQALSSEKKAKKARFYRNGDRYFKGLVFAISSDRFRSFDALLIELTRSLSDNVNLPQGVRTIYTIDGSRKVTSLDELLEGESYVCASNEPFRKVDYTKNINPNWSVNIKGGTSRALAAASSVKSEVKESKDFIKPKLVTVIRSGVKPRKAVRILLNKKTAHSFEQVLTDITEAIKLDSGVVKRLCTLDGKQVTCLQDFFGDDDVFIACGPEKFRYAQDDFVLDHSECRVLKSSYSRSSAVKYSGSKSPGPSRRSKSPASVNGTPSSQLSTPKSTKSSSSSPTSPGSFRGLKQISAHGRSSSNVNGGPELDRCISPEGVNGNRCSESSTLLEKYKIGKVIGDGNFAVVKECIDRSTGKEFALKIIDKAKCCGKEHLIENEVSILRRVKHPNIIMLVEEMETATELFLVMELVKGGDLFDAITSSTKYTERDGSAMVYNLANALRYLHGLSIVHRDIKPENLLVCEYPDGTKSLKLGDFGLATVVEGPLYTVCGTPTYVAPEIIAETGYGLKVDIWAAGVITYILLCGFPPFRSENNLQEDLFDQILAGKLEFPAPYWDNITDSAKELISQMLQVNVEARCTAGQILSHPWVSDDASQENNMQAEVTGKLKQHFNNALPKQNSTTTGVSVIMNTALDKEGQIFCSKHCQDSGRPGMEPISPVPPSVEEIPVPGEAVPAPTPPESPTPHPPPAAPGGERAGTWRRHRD
UniProt Q96GD4, sequence (whole entry, looked up): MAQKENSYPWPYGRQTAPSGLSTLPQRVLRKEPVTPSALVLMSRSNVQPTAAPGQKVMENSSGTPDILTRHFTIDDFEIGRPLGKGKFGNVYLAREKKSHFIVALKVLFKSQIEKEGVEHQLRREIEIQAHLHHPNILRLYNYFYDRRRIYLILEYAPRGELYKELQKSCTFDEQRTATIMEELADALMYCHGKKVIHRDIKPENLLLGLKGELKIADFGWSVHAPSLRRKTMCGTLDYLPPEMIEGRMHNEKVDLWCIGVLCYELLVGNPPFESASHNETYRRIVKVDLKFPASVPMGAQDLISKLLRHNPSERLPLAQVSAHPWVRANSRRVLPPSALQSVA
UniProt P42681, sequence (whole entry, looked up): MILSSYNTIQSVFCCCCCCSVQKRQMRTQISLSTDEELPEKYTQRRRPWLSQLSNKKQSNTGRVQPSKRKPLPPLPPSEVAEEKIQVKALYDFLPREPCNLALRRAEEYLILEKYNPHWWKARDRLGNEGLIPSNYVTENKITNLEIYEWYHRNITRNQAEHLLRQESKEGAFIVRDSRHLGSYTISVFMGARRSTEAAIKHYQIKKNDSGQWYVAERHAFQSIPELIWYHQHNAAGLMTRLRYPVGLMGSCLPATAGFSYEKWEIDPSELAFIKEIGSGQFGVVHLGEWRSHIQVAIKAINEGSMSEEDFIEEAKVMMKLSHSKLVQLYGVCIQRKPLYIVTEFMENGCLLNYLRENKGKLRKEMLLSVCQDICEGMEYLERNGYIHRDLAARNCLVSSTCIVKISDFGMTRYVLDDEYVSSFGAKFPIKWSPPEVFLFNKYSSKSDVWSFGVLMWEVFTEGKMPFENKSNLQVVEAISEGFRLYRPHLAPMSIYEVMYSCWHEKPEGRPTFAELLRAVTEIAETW
UniProt P06493, sequence (whole entry, looked up): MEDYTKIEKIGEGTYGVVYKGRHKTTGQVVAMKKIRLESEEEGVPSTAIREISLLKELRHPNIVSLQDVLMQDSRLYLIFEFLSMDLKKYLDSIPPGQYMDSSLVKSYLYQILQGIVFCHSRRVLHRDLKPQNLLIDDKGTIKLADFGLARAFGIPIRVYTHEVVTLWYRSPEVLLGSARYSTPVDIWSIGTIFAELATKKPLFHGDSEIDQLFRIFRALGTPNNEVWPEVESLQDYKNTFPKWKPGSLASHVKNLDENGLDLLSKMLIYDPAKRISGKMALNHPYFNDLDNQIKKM
UniProt O60331, sequence (whole entry, looked up): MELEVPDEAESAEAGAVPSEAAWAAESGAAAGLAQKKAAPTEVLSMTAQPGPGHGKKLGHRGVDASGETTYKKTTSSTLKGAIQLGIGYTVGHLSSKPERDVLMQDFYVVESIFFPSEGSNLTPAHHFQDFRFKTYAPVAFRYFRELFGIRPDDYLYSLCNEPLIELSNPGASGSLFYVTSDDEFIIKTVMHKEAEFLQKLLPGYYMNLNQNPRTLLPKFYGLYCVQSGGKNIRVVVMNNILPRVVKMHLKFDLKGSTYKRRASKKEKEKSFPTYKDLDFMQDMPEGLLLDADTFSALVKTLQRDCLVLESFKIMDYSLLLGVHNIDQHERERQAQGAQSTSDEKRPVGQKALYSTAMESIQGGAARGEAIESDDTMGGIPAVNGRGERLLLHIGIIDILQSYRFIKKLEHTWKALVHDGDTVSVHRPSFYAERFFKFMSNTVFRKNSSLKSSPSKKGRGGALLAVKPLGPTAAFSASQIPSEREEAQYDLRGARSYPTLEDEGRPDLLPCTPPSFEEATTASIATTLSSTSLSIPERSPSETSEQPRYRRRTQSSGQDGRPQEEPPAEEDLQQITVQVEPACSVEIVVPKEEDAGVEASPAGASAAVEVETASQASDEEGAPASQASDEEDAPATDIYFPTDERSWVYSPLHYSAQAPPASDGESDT
UniProt P31751, sequence (whole entry, looked up): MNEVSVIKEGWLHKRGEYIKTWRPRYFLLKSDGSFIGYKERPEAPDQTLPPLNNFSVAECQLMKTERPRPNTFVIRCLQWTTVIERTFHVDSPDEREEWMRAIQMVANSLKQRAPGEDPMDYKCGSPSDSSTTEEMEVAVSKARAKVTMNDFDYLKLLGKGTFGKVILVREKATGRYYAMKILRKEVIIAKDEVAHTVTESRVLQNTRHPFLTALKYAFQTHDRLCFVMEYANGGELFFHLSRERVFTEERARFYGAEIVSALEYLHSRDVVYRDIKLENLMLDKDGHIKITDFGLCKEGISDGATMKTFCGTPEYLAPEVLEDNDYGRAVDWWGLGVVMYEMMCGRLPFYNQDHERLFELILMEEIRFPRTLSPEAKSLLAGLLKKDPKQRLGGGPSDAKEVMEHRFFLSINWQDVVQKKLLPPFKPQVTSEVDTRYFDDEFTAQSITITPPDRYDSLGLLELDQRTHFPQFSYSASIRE

Series 1 — technique: competition with immobilised ligand; tested at: 1 µM; endpoint: remaining binding
SMILES: O=C(O)[C@@H]1[C@@H](Cn2nnc3ccccc3c2=O)CC[C@H]1C(=O)c1ccc(OCCC2CCOCC2)cc1
target = Mitogen-activated protein kinase 12 (MAPK12, Homo sapiens, UniProt P53778); assay = cell-free assay; value = 100%
target = Ephrin type-B receptor 3 (EPHB3, Homo sapiens, UniProt P54753); assay = cell-free assay; value = 100%
target = Macrophage colony-stimulating factor 1 receptor, autoinhibited (CSF1R, Homo sapiens, UniProt P07333); assay = cell-free assay; value = 94%
target = Homeodomain-interacting protein kinase 2 (HIPK2, Homo sapiens, UniProt Q9H2X6); assay = cell-free assay; value = 100%
target = Aurora kinase B (AURKB, Homo sapiens, UniProt Q96GD4); assay = cell-free assay; value = 100%
target = Serine/threonine-protein kinase 32A (STK32A, Homo sapiens, UniProt Q8WU08); assay = binding; value = 92%
target = Casein kinase II subunit alpha (CSNK2A1, Homo sapiens, UniProt P68400); assay = cell-free assay; value = 87%
target = Rho-associated protein kinase 1 (ROCK1, Homo sapiens, UniProt Q13464); assay = cell-free assay; value = 84%
target = Serine/threonine-protein kinase DCLK2 (DCLK2, Homo sapiens, UniProt Q8N568); assay = cell-free assay; value = 87%
target = Phosphatidylinositol 4-phosphate 5-kinase type-1 gamma (PIP5K1C, Homo sapiens, UniProt O60331); assay = cell-free assay; value = 100%
target = Serine/threonine-protein kinase Nek2 (NEK2, Homo sapiens, UniProt P51955); assay = cell-free assay; value = 100%

Series 2 — cell line: mouse MPNST tumor cells; technique: high-content nuclear imaging; measured: cell number; tested at: 10 µM; time: 12 h; notes: mean of 2 replicates; reference: plate mean; reading: higher = more cells; endpoint: nuclei count
Structure (SMILES) = CC(C)(C)CC(C)(C)c1ccc(OCOCCOCCO)c(Cc2cc(C(C)(C)CC(C)(C)C)cc(Cc3cc(C(C)(C)CC(C)(C)C)ccc3OCOCCOCCO)c2OCOCCOCCO)c1; value = 1.23 z-score
Structure (SMILES) = O=NN(CCCl)C(=O)NCCCl; value = -1.22 z-score
Structure (SMILES) = Cc1ccnc2c1NC(=O)c1cccnc1N2C1CC1; value = 0.442 z-score
Structure (SMILES) = O=C1CCCC(=O)C1C(=O)c1ccc(C(F)(F)F)cc1[N+](=O)[O-]; value = 2.38 z-score
Structure (SMILES) = CN(C)CCn1nnnc1SCC1=C(C(=O)O)N2C(=O)[C@@H](NC(=O)Cc3csc(N)n3)[C@H]2SC1; value = -0.0529 z-score
Structure (SMILES) = COc1ccccc1Oc1c(NS(=O)(=O)c2ccc(C(C)(C)C)cc2)nc(-c2ncccn2)nc1OCCO; value = 1.62 z-score and 0.135 z-score and 0.333 z-score
Structure (SMILES) = CN(C)CCCO[C@@H]1[C@H]2OC(C)(C)O[C@H]2O[C@@H]1[C@H](O)CO; value = 1.43 z-score
Structure (SMILES) = C/C(O)=C(\C#N)C(=O)Nc1ccc(C(F)(F)F)cc1; value = 0.364 z-score and -0.648 z-score
Structure (SMILES) = O=C1NC(=O)c2cc(Nc3ccccc3)c(Nc3ccccc3)cc21; value = 1.64 z-score
Structure (SMILES) = CC(=O)NS(=O)(=O)c1ccc(NC(=O)c2ccccc2C(=O)O)cc1; value = -0.481 z-score
Structure (SMILES) = Cc1cnc(NC(=O)c2cc(Oc3cnc(C(=O)N(C)C)nc3)c3cc(C)oc3c2)cn1; value = 2.31 z-score
Structure (SMILES) = Cc1ccc(-n2nc(C(C)(C)C)cc2NC(=O)Nc2ccc(OCCN3CCOCC3)c3ccccc23)cc1; value = 2.8 z-score
Structure (SMILES) = CCOC(=O)Nc1cc(-c2ccc(C)c(NS(C)(=O)=O)c2)nn2c(C)nnc12; value = -2.8 z-score
Structure (SMILES) = Cc1c2ccccc2c(CSC(=N)N)c2ccccc12; value = -6.34 z-score
Structure (SMILES) = Cc1c(NC(C)C)c(=O)n(-c2ccccc2)n1C; value = 4.62 z-score
Structure (SMILES) = O=c1cc(-c2ccc([N+](=O)[O-])cc2)nc2c(-c3ccc(Cl)cc3)c(Cc3ccccc3)[nH]n12; value = -3.2 z-score

Series 3 — effect on: enzyme activity; mode: inhibitor; tested at: 10 µM; endpoint: inhibition
Target: Calcium/calmodulin-dependent protein kinase type II subunit alpha (CAMK2A, Homo sapiens, UniProt Q9UQM7)
UniProt Q9UQM7, sequence (whole entry, looked up): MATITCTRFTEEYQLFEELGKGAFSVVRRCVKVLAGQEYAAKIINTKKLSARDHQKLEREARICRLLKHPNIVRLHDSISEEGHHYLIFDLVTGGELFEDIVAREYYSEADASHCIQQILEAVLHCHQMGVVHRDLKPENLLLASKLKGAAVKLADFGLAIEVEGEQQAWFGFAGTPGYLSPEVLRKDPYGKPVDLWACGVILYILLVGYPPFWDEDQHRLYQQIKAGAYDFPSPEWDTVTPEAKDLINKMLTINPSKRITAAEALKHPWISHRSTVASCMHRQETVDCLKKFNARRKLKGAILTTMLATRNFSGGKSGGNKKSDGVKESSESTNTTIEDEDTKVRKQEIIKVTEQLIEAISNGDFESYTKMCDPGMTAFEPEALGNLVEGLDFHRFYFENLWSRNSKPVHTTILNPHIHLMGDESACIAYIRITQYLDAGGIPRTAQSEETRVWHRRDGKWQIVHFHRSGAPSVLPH
Structure (SMILES) = CCN1CCC[C@H]1CNC(=O)c1cc(S(N)(=O)=O)ccc1OC; value = -2%
Structure (SMILES) = O=Cc1ccc(O)c(O)c1; value = 6%
Structure (SMILES) = O=[N+]([O-])c1ccc(O)c2ncccc12; value = -15%
Structure (SMILES) = C/C(O)=C(\C#N)C(=O)Nc1ccc(C(F)(F)F)cc1; value = -6%
Structure (SMILES) = CCCCOc1ccc(CC(=O)NO)cc1; value = -7%
Structure (SMILES) = CC(C)NC[C@@H](O)COc1ccc(CC(N)=O)cc1; value = 10%
Structure (SMILES) = O=C1[C@H]2CCCC[C@H]2C(=O)N1CCCCN1CCN(c2nsc3ccccc23)CC1; value = -9%
Structure (SMILES) = Cc1nnc(C(C)C)n1[C@@H]1C[C@H]2CC[C@@H](C1)N2CC[C@H](NC(=O)C1CCC(F)(F)CC1)c1ccccc1; value = -11%
Structure (SMILES) = COc1ccc(OC)cc1; value = 19%
Structure (SMILES) = CC1=CC(=O)CC(C)(C)C1; value = -23%
Structure (SMILES) = O=c1ccn([C@@H]2O[C@H](CO)[C@@H](O)[C@@H]2O)c(=O)[nH]1; value = -44%
Structure (SMILES) = C=CCC(C)C(=O)O (stereo not drawn); value = 7%
Structure (SMILES) = Oc1c(Br)cc(Br)c2cccnc12; value = -9%
Structure (SMILES) = COC(=O)C1=CO[C@@H](O[C@@H]2O[C@H](CO)[C@@H](O)[C@H](O)[C@H]2O)[C@@H]2[C@H](C)O[C@@H](O)C[C@H]12; value = -15%

Series 4 — effect on: enzyme activity; mode: inhibitor; tested at: 0.5 µM; reference: control; endpoint: remaining activity
SMILES: CN1CCN(c2ccc3nc(-c4c(N)c5c(F)cccc5[nH]c4=O)[nH]c3c2)CC1
target = Cyclin-dependent kinase 9, with cyclin K (CDK9, Homo sapiens, UniProt P50750); value = 91.1%
target = Serine/threonine-protein kinase MRCK beta (CDC42BPB, Homo sapiens, UniProt Q9Y5S2); value = 99.2%
target = Serine/threonine-protein kinase DCLK2 (DCLK2, Homo sapiens, UniProt Q8N568); value = 94.1%
target = Ribosomal protein S6 kinase alpha-4 (RPS6KA4, Homo sapiens, UniProt O75676); value = 72.1%
target = Serine/threonine-protein kinase PLK3 (PLK3, Homo sapiens, UniProt Q9H4B4); value = 101%
target = Tyrosine-protein kinase TXK (TXK, Homo sapiens, UniProt P42681); value = 75.1%
target = Dual specificity mitogen-activated protein kinase kinase 1 (MAP2K1, Homo sapiens, UniProt Q02750); value = 88.7%
target = cGMP-dependent protein kinase 2 (PRKG2, Homo sapiens, UniProt Q13237); value = 99%
target = Misshapen-like kinase 1 (MINK1, Homo sapiens, UniProt Q8N4C8); value = 1.65%
target = Hepatocyte growth factor receptor (MET, Homo sapiens, UniProt P08581); value = 84.4%
target = G protein-coupled receptor kinase 4 (GRK4, Homo sapiens, UniProt P32298); value = 94.2%
target = MAP/microtubule affinity-regulating kinase 4 (MARK4, Homo sapiens, UniProt Q96L34); value = 25.5%
target = Dual specificity protein kinase CLK4 (CLK4, Homo sapiens, UniProt Q9HAZ1); value = 52.2%
target = Calcium/calmodulin-dependent protein kinase type 1B (PNCK, Homo sapiens, UniProt Q6P2M8); value = 104%
target = Mitogen-activated protein kinase 11 (MAPK11, Homo sapiens, UniProt Q15759); value = 104%
target = Calcium/calmodulin-dependent protein kinase type IV (CAMK4, Homo sapiens, UniProt Q16566); value = 91.7%
target = Dual specificity protein kinase CLK3 (CLK3, Homo sapiens, UniProt P49761); value = 104%
target = RAC-beta serine/threonine-protein kinase (AKT2, Homo sapiens, UniProt P31751); value = 109%
target = Serine/threonine-protein kinase tousled-like 2 (TLK2, Homo sapiens, UniProt Q86UE8); value = 89.3%
target = Cyclin-dependent kinase 1, with cyclin A (CDK1, Homo sapiens, UniProt P06493); value = 93.6%
target = Mitogen-activated protein kinase 1 (MAPK1, Homo sapiens, UniProt P28482); value = 82.4%
target = Rho-associated protein kinase 1 (ROCK1, Homo sapiens, UniProt Q13464); value = 100%
target = Serine/threonine-protein kinase Nek3 (NEK3, Homo sapiens, UniProt P51956); value = 88.2%
target = Myosin-IIIb (MYO3B, Homo sapiens, UniProt Q8WXR4); value = 79.7%
target = Discoidin domain-containing receptor 2 (DDR2, Homo sapiens, UniProt Q16832); value = 195%

Some of these lines once more (series 2):
Structure (SMILES) = Cc1ccnc2c1NC(=O)c1cccnc1N2C1CC1; value = 0.442 z-score
Structure (SMILES) = O=C1CCCC(=O)C1C(=O)c1ccc(C(F)(F)F)cc1[N+](=O)[O-]; value = 2.38 z-score
Structure (SMILES) = CN(C)CCn1nnnc1SCC1=C(C(=O)O)N2C(=O)[C@@H](NC(=O)Cc3csc(N)n3)[C@H]2SC1; value = -0.0529 z-score
Structure (SMILES) = COc1ccccc1Oc1c(NS(=O)(=O)c2ccc(C(C)(C)C)cc2)nc(-c2ncccn2)nc1OCCO; value = 1.62 z-score and 0.135 z-score and 0.333 z-score
Structure (SMILES) = CN(C)CCCO[C@@H]1[C@H]2OC(C)(C)O[C@H]2O[C@@H]1[C@H](O)CO; value = 1.43 z-score
Structure (SMILES) = C/C(O)=C(\C#N)C(=O)Nc1ccc(C(F)(F)F)cc1; value = 0.364 z-score and -0.648 z-score
Structure (SMILES) = O=C1NC(=O)c2cc(Nc3ccccc3)c(Nc3ccccc3)cc21; value = 1.64 z-score
